Measurements collected from several papers.
Compare with care: the assays were run in different laboratories. Several values in a cell are separate wells, animals, samples, runs or records. ± marks the error that the study gave.
Oprm1: Mu-type opioid receptor (Oprm1, Rattus norvegicus, UniProt P33535)
Chain of UniProt P33535 (whole entry, looked up): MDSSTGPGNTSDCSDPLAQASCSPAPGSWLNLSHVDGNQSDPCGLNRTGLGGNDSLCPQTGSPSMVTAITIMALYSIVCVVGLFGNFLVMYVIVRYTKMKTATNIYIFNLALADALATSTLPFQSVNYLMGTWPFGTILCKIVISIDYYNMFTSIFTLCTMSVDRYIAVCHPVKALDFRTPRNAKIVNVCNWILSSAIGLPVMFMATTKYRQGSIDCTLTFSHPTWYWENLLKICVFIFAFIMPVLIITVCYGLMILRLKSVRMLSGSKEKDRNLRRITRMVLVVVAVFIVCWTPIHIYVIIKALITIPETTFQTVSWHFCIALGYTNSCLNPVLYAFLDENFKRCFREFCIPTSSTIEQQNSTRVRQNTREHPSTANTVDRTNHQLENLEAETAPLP
sdiA: Regulatory protein SdiA (sdiA, Escherichia coli, UniProt P07026)
Chain of UniProt P07026 (whole entry, looked up): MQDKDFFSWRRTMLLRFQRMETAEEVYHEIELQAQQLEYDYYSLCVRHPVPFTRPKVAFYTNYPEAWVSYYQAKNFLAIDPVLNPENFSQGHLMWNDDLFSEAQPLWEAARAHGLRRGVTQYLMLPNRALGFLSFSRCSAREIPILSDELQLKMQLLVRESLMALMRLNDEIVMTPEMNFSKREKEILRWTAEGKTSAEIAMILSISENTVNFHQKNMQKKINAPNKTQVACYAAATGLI
EPHA1: Ephrin type-A receptor 1 (EPHA1, Homo sapiens, UniProt P21709)
Chain of UniProt P21709 (whole entry, looked up): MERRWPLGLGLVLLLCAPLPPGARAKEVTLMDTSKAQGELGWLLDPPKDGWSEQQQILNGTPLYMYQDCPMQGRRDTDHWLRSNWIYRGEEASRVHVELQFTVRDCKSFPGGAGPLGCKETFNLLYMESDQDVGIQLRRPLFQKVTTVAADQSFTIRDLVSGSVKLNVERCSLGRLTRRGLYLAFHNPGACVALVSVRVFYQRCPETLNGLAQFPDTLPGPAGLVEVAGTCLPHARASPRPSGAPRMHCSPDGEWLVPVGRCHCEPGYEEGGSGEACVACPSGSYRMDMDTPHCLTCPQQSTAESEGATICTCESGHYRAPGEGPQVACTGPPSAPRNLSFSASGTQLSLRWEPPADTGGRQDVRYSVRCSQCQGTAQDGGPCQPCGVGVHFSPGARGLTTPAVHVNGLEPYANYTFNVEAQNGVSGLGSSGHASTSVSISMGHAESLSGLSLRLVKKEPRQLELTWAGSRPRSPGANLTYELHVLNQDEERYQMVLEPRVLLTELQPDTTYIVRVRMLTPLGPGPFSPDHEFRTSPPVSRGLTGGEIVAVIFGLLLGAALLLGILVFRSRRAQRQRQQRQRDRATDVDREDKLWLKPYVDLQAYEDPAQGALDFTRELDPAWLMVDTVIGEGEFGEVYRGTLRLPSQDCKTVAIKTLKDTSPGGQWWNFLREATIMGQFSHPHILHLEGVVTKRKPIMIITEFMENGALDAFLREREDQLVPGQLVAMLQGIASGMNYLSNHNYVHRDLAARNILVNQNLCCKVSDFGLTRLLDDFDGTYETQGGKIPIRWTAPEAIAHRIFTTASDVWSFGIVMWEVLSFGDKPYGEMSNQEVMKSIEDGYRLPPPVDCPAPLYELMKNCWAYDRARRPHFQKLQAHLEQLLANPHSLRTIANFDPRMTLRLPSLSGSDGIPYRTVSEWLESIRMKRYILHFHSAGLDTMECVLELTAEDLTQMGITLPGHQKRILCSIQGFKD
KEAP1: Kelch-like ECH-associated protein 1 (KEAP1, Homo sapiens, UniProt Q14145)
Chain of UniProt Q14145 (whole entry, looked up): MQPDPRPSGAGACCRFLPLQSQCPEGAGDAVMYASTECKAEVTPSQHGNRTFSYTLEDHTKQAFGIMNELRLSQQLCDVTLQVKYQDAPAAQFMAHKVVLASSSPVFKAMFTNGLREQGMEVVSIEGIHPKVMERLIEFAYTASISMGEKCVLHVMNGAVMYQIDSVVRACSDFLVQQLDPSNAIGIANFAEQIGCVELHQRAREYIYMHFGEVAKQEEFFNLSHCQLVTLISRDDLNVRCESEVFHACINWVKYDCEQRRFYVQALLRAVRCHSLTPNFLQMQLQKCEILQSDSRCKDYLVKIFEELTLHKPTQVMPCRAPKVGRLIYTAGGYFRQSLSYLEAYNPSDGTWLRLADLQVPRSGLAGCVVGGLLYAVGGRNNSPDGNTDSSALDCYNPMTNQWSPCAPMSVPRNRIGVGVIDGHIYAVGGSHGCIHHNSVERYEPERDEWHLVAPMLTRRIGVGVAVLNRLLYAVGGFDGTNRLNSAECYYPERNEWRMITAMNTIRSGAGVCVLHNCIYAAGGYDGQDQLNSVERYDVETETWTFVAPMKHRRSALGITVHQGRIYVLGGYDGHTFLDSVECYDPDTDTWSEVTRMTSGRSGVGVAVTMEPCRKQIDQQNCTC
Uncharacterized hydrolase SAUSA300_2518: Uncharacterized hydrolase SAUSA300_2518 (Staphylococcus aureus, UniProt Q2FDS6)
Chain of UniProt Q2FDS6 (whole entry, looked up): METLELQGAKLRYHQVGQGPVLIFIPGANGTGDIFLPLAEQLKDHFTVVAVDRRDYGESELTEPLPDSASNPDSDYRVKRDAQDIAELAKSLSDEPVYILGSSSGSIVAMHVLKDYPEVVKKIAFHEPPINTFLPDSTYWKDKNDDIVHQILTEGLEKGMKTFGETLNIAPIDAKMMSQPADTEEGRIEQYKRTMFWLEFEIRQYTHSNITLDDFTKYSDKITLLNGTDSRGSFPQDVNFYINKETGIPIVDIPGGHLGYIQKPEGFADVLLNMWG
lasR: Transcriptional activator protein LasR (lasR, Pseudomonas aeruginosa, UniProt P25084)
Chain of UniProt P25084 (whole entry, looked up): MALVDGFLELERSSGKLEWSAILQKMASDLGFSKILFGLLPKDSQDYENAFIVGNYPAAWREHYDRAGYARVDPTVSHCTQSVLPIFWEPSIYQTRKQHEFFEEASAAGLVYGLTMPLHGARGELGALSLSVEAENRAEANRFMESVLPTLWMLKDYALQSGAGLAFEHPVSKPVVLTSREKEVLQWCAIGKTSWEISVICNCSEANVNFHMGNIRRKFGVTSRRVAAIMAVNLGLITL
Chain of UniProt D0VWV4 (whole entry, looked up): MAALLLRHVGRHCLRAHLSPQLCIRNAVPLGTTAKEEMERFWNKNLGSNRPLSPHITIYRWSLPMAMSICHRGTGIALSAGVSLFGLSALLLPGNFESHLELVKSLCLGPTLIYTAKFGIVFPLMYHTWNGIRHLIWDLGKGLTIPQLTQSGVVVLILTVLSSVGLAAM
Chain of UniProt Q007T0 (whole entry, looked up): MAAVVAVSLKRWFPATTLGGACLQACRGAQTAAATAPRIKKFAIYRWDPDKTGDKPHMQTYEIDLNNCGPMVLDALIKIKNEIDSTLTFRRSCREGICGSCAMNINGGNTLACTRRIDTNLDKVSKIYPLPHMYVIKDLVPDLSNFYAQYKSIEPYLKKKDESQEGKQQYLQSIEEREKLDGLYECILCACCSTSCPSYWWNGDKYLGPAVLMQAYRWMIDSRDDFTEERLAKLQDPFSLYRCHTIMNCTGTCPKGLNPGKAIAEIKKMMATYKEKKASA
Chain of UniProt A5GZW8 (whole entry, looked up): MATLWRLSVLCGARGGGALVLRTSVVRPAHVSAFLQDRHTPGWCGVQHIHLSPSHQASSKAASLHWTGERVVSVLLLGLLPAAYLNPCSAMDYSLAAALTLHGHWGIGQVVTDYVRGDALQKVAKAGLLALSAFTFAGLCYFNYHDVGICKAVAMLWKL
Chain of UniProt Q9Y2J8 (whole entry, looked up): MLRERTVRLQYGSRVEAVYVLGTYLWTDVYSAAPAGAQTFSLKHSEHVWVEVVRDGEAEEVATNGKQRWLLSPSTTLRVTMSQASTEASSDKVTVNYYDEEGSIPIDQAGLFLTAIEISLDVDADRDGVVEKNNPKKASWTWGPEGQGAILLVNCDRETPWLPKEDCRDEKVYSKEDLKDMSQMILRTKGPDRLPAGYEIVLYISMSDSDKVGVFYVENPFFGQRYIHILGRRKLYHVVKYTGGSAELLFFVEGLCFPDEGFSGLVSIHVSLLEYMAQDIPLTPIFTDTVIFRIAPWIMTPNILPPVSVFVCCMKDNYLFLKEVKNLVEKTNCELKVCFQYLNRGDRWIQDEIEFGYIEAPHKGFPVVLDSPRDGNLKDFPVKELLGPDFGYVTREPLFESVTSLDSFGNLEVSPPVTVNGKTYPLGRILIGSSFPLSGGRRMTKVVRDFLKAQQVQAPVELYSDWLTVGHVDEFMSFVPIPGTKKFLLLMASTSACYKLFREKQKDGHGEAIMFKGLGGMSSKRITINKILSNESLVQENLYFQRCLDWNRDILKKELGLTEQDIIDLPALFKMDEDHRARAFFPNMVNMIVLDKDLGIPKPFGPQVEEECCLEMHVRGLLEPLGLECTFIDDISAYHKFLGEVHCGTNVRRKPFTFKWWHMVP
Chain of UniProt Q13422 (whole entry, looked up): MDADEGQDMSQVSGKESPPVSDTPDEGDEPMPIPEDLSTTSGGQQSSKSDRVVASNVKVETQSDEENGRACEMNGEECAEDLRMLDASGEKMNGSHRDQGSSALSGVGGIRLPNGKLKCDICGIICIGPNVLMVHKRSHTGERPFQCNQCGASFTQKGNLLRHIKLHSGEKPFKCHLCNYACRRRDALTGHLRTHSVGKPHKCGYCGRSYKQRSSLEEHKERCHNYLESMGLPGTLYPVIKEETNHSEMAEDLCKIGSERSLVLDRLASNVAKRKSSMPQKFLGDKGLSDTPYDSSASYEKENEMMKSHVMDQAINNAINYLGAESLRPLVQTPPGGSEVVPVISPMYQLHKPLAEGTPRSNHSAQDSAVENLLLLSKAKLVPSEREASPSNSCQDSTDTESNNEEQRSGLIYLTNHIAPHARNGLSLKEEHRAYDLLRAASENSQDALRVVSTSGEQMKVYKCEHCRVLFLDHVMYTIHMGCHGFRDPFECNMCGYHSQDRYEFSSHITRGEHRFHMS
Chain of UniProt P00772 (whole entry, looked up): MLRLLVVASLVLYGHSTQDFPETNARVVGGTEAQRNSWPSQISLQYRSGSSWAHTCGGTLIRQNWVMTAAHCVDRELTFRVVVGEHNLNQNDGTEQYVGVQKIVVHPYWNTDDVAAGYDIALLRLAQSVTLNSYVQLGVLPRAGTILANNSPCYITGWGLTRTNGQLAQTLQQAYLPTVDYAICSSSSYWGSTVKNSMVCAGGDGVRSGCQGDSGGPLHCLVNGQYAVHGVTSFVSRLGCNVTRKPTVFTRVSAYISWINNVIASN

COc1cccc2c1OC(C)(C)[C@@H]1C[C@H]3CN(C(=O)[C@@H](Cc4c[nH]c5ccccc45)NC(=O)OC(C)(C)C)CC[C@H]3O[C@@H]21 — ΔTm (Tumor susceptibility gene 101 protein (Homo sapiens, UniProt Q99816); thermal stability; 800 µM): 16.8 °C
Cc1nc2cccc(OCC(C)(C)C(=O)NC(C)C)c2c(N)c1C(=O)[O-].[Na+] — revertant colonies per plate (Salmonella typhimurium; TA100; 0.32 mg per plate, without S9, plate incorporation): 149 ± 7
C[C@@H](O)[C@@H]1CN([C@@H](CC2CCCCC2)CN2CCC[C@H]2CN2CCNC[C@@H]2Cc2ccc3ccccc3c2)CCN1CCC12CC3CC(CC(C3)C1)C2 — remaining binding (Oprm1; radioligand binding; rat brain membranes; 500 nM, pH 7.5, 25 °C, together with: 0.87 nM [3H]DAMGO): 111 ± 5.93%
O=C(O)C(Cl)Cl.OCCN(CCO)CCO — herbicidal inhibition (Eleusine indica; 15 mg/mL, 21 days, post-emergence, greenhouse): -28%
Cc1ccc2oc(=O)cc(CN3CCCCC3)c2c1 — agonist activity (Alpha-1B adrenergic receptor (ADRA1B, Homo sapiens, UniProt P35368); intracellular Ca2+ mobilization, agonist; COS-7; 500 µM; baseline: 3 µM ionomycin): 6.47 ± 1.56%
O=C1NC(=O)c2c1c1cc(F)c[n+]3c1c1c2c2cc(O)ccc2[n]1[Ru-4]312([N]=C=S)[S+]3CC[S+]1CC[S+]2CC3 (stereo not shown) — remaining activity (Tyrosine-protein kinase Yes (YES1, Homo sapiens, UniProt P07947); enzyme activity; 100 nM, human enzyme, together with: 10 µM ATP; baseline: untreated): 26%
CC[C@@H]1C(=O)N(C)c2cnc(Nc3ccc(C(=O)NCCCC[C@H](NC(=O)[C@@H](NC(=O)[C@H](CO)NC(=O)[C@H](Cc4cncn4CCCCCCCCc4ccccc4)NC(=O)[C@H](CC(C)C)NC(=O)[C@@H]4CCCN4C(C)=O)[C@@H](C)CP(=O)(O)O)C(N)=O)cc3OC)nc2N1C1CCCC1 — recovery B-A (Caco-2; 10 µM, 2 h): 67.1%
CC(C)CC(O)(CC(C)C)c1cn(C(=O)N2CCCC2)nn1 — median SILAC activity ratio (Cytosolic acyl coenzyme A thioester hydrolase (Acot7, Mus musculus, UniProt Q91V12); probe labelling, inhibitor, competitive ABPP-SILAC, measured: Acot7; mouse T cells; concentration not given, 4 h, protein level; baseline: treated over DMSO cells, lower = stronger inhibition): 1.15
C=CC(=O)NC[C@H](NC(=O)[C@H](CC1CCCCC1)NC(=O)[C@H](CCC(N)=O)NC(C)=O)C(=O)N[C@@H](CC(C)C)C(=O)N[C@@H](Cc1ccccc1)C(=O)O — ΔH (Beta sliding clamp (Escherichia coli, UniProt P0A988); isothermal titration calorimetry; pH 7.4, 37 °C): -15 kcal/mol
N[C@H](C(=O)N1CCCC1)C1CCN(c2nccc3c(-c4ncc(Cl)cc4Cl)cccc23)CC1 — kcat (Protein-arginine deiminase type-2 (PADI2, Homo sapiens, UniProt Q9Y2J8); enzyme activity; 0.006291 µM, low-affinity site, together with: Ca2+ 0.25 mM): 1.26 s⁻¹ and 1.23 s⁻¹
CCCC[C@H]1CNCCN1C[C@@H]1CCCN1C[C@H](CC1CCCCC1)N1CCN(CCC23CC4CC(CC(C4)C2)C3)[C@H]([C@H](C)CC)C1 — remaining binding (Oprm1; radioligand binding; rat brain membranes; 500 nM, pH 7.5, 25 °C, together with: 0.87 nM [3H]DAMGO): 107 ± 7.64%
C#CCCCCOc1ccc2c(c1)CCCN2C(=O)CCl — reactivity ratio (Patatin-like phospholipase domain-containing protein 2 (Homo sapiens, UniProt Q96AD5); mass spectrometry profiling, measured: PNPLA2; H460 cell lysate; 100 µM over 10 µM, UniProt Q96AD5; baseline: high over low concentration): 1.6
CCCCCCCC(=O)N[C@H]1CCSC1=O — Emax (sdiA): 120%
CCn1nc(Cl)c2c1-c1cnc(N)c(c1)O[C@H](C)c1cc(F)ccc1-c1nn(C)cc1C2 — selectivity ratio (EPHA1; kinase activity, inhibitor; baseline: IC50 EPHA1 over IC50 ALK): 225 fold
CC(C)C[C@@H]1NC(=O)[C@H](C(C)C)NC(=O)[C@H](CCC(=O)O)NC(=O)CNC(=O)[C@H]([C@@H](C)O)NC(=O)[C@H](CCC(=O)O)NC(=O)[C@H](CCC(=O)O)NC(=O)[C@H](CC(=O)O)NC(=O)[C@H](C(C)C)NC(=O)[C@H]([C@@H](C)O)NC(=O)CNC(=O)[C@H](CC(=O)O)NC(=O)[C@@H]2CCCN2C1=O — fluorescence polarization (KEAP1; Keap1-Nrf2 binding, inhibitor, competitive FP; 0.0015 µM, 30 min, together with: Nrf2 peptide probe; lower = stronger inhibition): 1.04 a.u. and 0.968 a.u.
CC[C@H](C)[C@H](NC(=O)[C@H](CO)NC(=O)[C@H](Cc1ccc(O)cc1)NC(=O)[C@H](Cc1ccc(O)cc1)NC(=O)[C@H](CC(N)=O)NC(=O)CNC(=O)[C@H](CO)NC(=O)[C@H](Cc1ccc(O)cc1)NC(=O)[C@H](CO)NC(=O)[C@H](CO)NC(=O)[C@H](CC(N)=O)NC(=O)COCCOCCNC(=O)CN1CCN(CC(=O)O)CCN(CC(=O)O)CCN(CC(=O)O)CC1)C(=O)N[C@@H](CC(C)C)C(N)=O [copper-64 labelled] — tissue uptake (dynamic PET; KPC mouse Ptf1a-CreER tdTomato, pancreas; intravenous, 4.6 MBq/mouse, 0.4 min, 84 d after tamoxifen): 11.9 %ID/mL
CSCC[C@@H]1NC(=O)[C@H](Cc2ccccc2)NC(=O)[C@@H](NC(=O)[C@H](C)N)CNC(=O)[C@H](C(C)C)NC(=O)[C@H](Cc2ccccc2)NC1=O — EC50 ratio (Histidine kinase AgrC (Listeria monocytogenes, UniProt A8E0G3); reporter gene, agonist, agr GFP reporter; baseline: native 6-mer AIP): 10 fold
O=S(=O)(F)c1cccc2c1OCC2 — remaining activity (Uncharacterized hydrolase SAUSA300_2518; enzyme activity, inhibitor, fluorogenic substrate; 0.5 µM): 116% and 114%
N=C(N)NCCC[C@@H]1NC(=O)[C@H](CCCCNC(=O)CCC(NC(=S)Nc2ccc(CC3CN(CC(=O)O)CCN(CC(=O)O)CCN(CC(=O)O)CCN3CC(=O)O)cc2)C(=O)NCCCC[C@@H]2NC(=O)[C@@H](Cc3ccc(O)cc3)NC(=O)[C@H](CC(=O)O)NC(=O)CNC(=O)[C@H](CCCNC(=N)N)NC2=O)NC(=O)[C@@H](Cc2ccc(O)cc2)NC(=O)[C@H](CC(=O)O)NC(=O)CNC1=O (stereo partly shown) [scandium-44 labelled] — tissue uptake (ex vivo γ-counting; female athymic nude mice, U-87 MG xenograft, intestine; intravenous, 4 h): 1.58 ± 1.02 %ID/g
O=C1NC2(CC2)COc2ncc(F)cc2[C@H]2COCCN2c2ccn3ncc1c3n2 — prothrombin time (Sprague-Dawley rat, male, plasma; oral, 2.5 mg/kg/day, end of recovery, 4-week repeated-dose toxicity): 8.8 ± 0.3 s
Cc1ccc(NC(=O)CCc2cccc(NC3=CC(=O)N(C4CCC(=O)NC4=O)C3=O)c2)cc1Cl (stereo not shown) — log2 fold change (Cereblon/Ikaros (Homo sapiens, UniProt Q13422+Q96SW2); degrader, quantitative proteomics, measured: protein abundance; human regulatory T cells; 1 µM, 4 h; baseline: DMSO): -1.49
COc1cc2c(cc1S(=O)(=O)F)C(=O)NCCC2 — remaining activity (Uncharacterized hydrolase SAUSA300_2518; enzyme activity, inhibitor, fluorogenic substrate; 1 µM): 94.4% and 90.5% and 96.1%
CC(C)[C@@H]1NC(=O)[C@H](CC(N)=O)NC(=O)CNC(=O)[C@H](CC(N)=O)NC(=O)[C@H](C)NC(=O)[C@H](CC(=O)O)NC(=O)[C@H]([C@@H](C)O)NC(=O)[C@H](CCC(=O)O)NC(=O)CNC(=O)[C@H]([C@@H](C)O)NC(=O)[C@H](CCC(=O)O)NC(=O)[C@H](CCC(=O)O)NC(=O)[C@H](CC(=O)O)NC1=O — fluorescence polarization (KEAP1; Keap1-Nrf2 binding, inhibitor, competitive FP; 0.3906 µM, 30 min, together with: Nrf2 peptide probe; lower = stronger inhibition): 0.383 a.u. and 0.341 a.u.
O=C1C=C(Br)/C(=C/Br)O1 — agonist activity (lasR; reporter gene, agonist; Escherichia coli JLD271; 10 µM, pSC11 and pJN105L plasmids; baseline: OdDHL at same concentration): 1%
CON(C(=O)c1cn(C)nc1C(F)F)C(C)Cc1c(Cl)cc(Cl)cc1Cl (stereo not shown) — reaction velocity (SDHD/SDHC/SDHB (Sus scrofa, UniProt A5GZW8+D0VWV4+Q007T0); enzyme activity, inhibitor, DCIP reduction; pig; 0.3 µM, together with: DCIP 80 µM): 0.0122 µM/s and 0.0114 µM/s and 0.0111 µM/s
CC(C)(C)C(=O)OCOP(=O)(OCOC(=O)C(C)(C)C)C1CCCN(O)C1=O (stereo not shown) — log GI50 (KM12): -6.35 log M
CN(C)[C@H]1C[C@@]23CC[C@@]4(O2)C(=CC[C@]2(C)[C@@H](c5ccc6ccncc6c5)CC[C@H]24)C=C3[C@@H](O)[C@@H]1O — inhibition (Serine/threonine-protein kinase Nek7 (NEK7, Homo sapiens, UniProt Q8TDX7); ATP probe labelling, inhibitor, KiNativ profiling; 0.1 µM): 8.8%
COc1ccccc1-c1n[nH]c2nc(N[C@H]3CC[C@H](NS(=O)(=O)CC(C)C)CC3)ncc12 — remaining binding (cdc2-related kinase 12 (Leishmania donovani, UniProt A0A3S7WQK2); Kinobeads competition; Leishmania donovani extract; 10 µM; baseline: vehicle): 4.73%
CC[C@@H](C)[C@@H]1CN([C@H](Cc2ccc3ccccc3c2)CN2CCC[C@H]2CN2CCNC[C@@H]2Cc2ccc3ccccc3c2)CCN1CCCC1CCCC1 — remaining binding (Oprm1; radioligand binding; rat brain membranes; 500 nM, pH 7.5, 25 °C, together with: 0.87 nM [3H]DAMGO): 106 ± 8.95%
O=C(CCCOc1cccc(Br)c1)N[C@H]1CCSC1=O — agonist activity (lasR; reporter gene, agonist; Pseudomonas aeruginosa PAO-JP2; 100 µM, plasI-LVAgfp reporter; baseline: OdDHL at same concentration): 100%
CN(C)[C@H](CNC(=O)/C=C/c1cccc2ccccc12)Cc1ccc(O)cc1 — Emax (Mu-type opioid receptor, with Gi1 (OPRM1, Homo sapiens, UniProt P35372); receptor activation, agonist): 72 ± 2%
OB(O)c1cnn(-c2cc(Cl)ncn2)c1 — selectivity ratio (Chymotrypsin-like elastase family member 1 (CELA1, Sus scrofa, UniProt P00772); pNA substrate hydrolysis; baseline: Ki protease over Ki AmpC): 288000
Nc1ccc(/C=C/C(=O)N2CCc3c(oc4c(-c5ccc(F)cc5)cc(-c5ccc(C(=O)N6CCC(F)(F)CC6)cn5)cc34)C2)cn1 — remaining binding (Mitogen-activated protein kinase 3 (MAPK3, Homo sapiens, UniProt P27361); binding, competition with immobilised ligand; 1 µM): 100%
CC(C)[C@H]1NC(=O)C[C@H]2/C=C/CCSSC[C@@H](NC1=O)C(=O)N[C@H](Cc1cccc3ccccc13)C(=O)NCC(=O)O2 — inhibition (Cyclin-dependent kinase 3, with cyclin E1 (CDK3, Homo sapiens, UniProt Q00526); enzyme activity, inhibitor; 10 µM): -2.1%
CCCCCCCCCC(=O)CC(=O)Nc1ccccc1O — IC50 (lasR; lasI-gfp reporter, antagonist; Pseudomonas aeruginosa PAO-JP2; together with: OdDHL 150 nM): inactive
Cc1cc(C(=O)Nc2nc3cccc(C)c3n2[C@H]2CCCCN(C(=O)/C=C/CN(C)C)C2)ccn1 — cell growth (Trypanosoma brucei brucei; 2T1 parental; 5 x EC50, 24 h; baseline: time 0 h): 120% and 100% and 133%
CS(C)(=O)=Nc1ccc(-c2ccc(-c3nc4cc(O[C@@H]5CO[C@H]6[C@@H]5OC[C@H]6O)[nH]c4cc3F)cc2)cc1 — inhibition (EPHA1; enzyme activity, inhibitor; 10 µM): -4%
CCCCCC(O)CC(=O)N[C@H]1CCOC1=O (stereo partly shown) — Emax (sdiA): 79.2%
O=C(CCCOc1ccc(Cl)cc1)N[C@H]1CCOC1=O — IC50 ratio (lasR; plasI-LVAgfp reporter, antagonist; baseline: pump-active over pump-mutant): 16
Cc1cc(O)cc(C)c1C[C@H](N)C(=O)N[C@H](CCCNC(=N)N)C(=O)N[C@@H](Cc1ccccc1)C(=O)N[C@@H](CCCCN)C(=O)NCCCCCCNC(=O)[C@H](Cc1ccccc1)NC(=O)[C@H](CC1CCCCC1)NC[C@@H]1Cc2ccccc2CN1C(=O)[C@@H](N)Cc1ccc(O)cc1 — selectivity ratio (Oprm1; binding; rat brain membranes; together with: [3H]DAMGO; baseline: Ki mu over Ki delta): 5.31

A few entries again:
O=C(CCCOc1cccc(Br)c1)N[C@H]1CCSC1=O — agonist activity (lasR; reporter gene, agonist; Pseudomonas aeruginosa PAO-JP2; 100 µM, plasI-LVAgfp reporter; baseline: OdDHL at same concentration): 100%
CN(C)[C@H](CNC(=O)/C=C/c1cccc2ccccc12)Cc1ccc(O)cc1 — Emax (Mu-type opioid receptor, with Gi1 (OPRM1, Homo sapiens, UniProt P35372); receptor activation, agonist): 72 ± 2%
OB(O)c1cnn(-c2cc(Cl)ncn2)c1 — selectivity ratio (Chymotrypsin-like elastase family member 1 (CELA1, Sus scrofa, UniProt P00772); pNA substrate hydrolysis; baseline: Ki protease over Ki AmpC): 288000
Nc1ccc(/C=C/C(=O)N2CCc3c(oc4c(-c5ccc(F)cc5)cc(-c5ccc(C(=O)N6CCC(F)(F)CC6)cn5)cc34)C2)cn1 — remaining binding (Mitogen-activated protein kinase 3 (MAPK3, Homo sapiens, UniProt P27361); binding, competition with immobilised ligand; 1 µM): 100%
CC(C)[C@H]1NC(=O)C[C@H]2/C=C/CCSSC[C@@H](NC1=O)C(=O)N[C@H](Cc1cccc3ccccc13)C(=O)NCC(=O)O2 — inhibition (Cyclin-dependent kinase 3, with cyclin E1 (CDK3, Homo sapiens, UniProt Q00526); enzyme activity, inhibitor; 10 µM): -2.1%
